{"data": "Experimental data pooled from the literature", "rep papain-like protease": "Replicase polyprotein 1ab, papain-like protease (rep, Severe acute respiratory syndrome-related coronavirus, UniProt P0C6X7)", "rep main protease": "Replicase polyprotein 1ab, main protease (rep, Severe acute respiratory syndrome-related coronavirus, UniProt P0C6X7)", "note": "± marks the error that the study gave."}
{"Structure (SMILES)": "CCCC(C(=O)Nc1ccccc1C)n1c(SCc2ccc(F)cc2)nc2cccnc21 (centres unmarked)", "target": "rep papain-like protease", "observed": "enzyme activity", "IC50 [µM]": "> 20"}
{"Structure (SMILES)": "CCOC(=O)/C=C/C(Cc1ccccc1)NC(=O)[C@H](Cc1ccc(F)cc1)NC(=O)C(NC(=O)OCc1ccccc1)C(C)C (some centres unmarked)", "target": "rep main protease", "observed": "enzyme activity", "action": "inhibitor", "IC50 [µM]": 11}
{"Structure (SMILES)": "Cc1ccc(C(=O)NCc2ccc(C)c(C(=O)N[C@H](C)c3cccc4ccccc34)c2)cc1Cl", "target": "rep papain-like protease", "observed": "enzyme activity", "action": "inhibitor", "IC50 [µM]": "0.28 ± 0.04"}
{"Structure (SMILES)": "O=C[C@H](C[C@@H]1CCNC1=O)NC(=O)[C@H](Cc1ccccc1)NC(=O)/C=C/c1ccc2c(c1)OCO2", "target": "rep main protease", "observed": "enzyme activity", "action": "inhibitor", "IC50 [µM]": "> 25"}
{"Structure (SMILES)": "O=c1cc(C(F)(F)F)c2ccc(O)cc2o1", "target": "rep papain-like protease", "observed": "enzyme activity", "action": "inhibitor", "IC50 [µM]": 149}
{"Structure (SMILES)": "CCOC(=O)/C=C/C(C[C@@H]1CCNC1=O)NC(=O)[C@H](Cc1ccccc1)NC(=O)C(NC(=O)OCc1ccccc1)C(C)C (some centres unmarked)", "target": "rep main protease", "observed": "enzyme activity", "action": "inhibitor", "IC50 [µM]": 85}
{"Structure (SMILES)": "Cc1ncc(CO)c(C23OC4(O)CC(O)(CC(O)(C4)O2)O3)c1O", "target": "Replicase polyprotein 1ab, nsp13 helicase (rep, Severe acute respiratory syndrome-related coronavirus, UniProt P0C6X7)", "organism": "SARS coronavirus", "IC50 [µM]": 3}
{"Structure (SMILES)": "CCC[C@H](NC(=O)[C@H](CC(C)C)NC(=O)OCc1ccccc1)C(=O)C(=O)NCc1ccccn1", "target": "rep main protease", "observed": "enzyme activity", "action": "inhibitor", "IC50 [µM]": 0.6}
{"Structure (SMILES)": "O=C(NCCc1cccc(F)c1)[C@@H](c1cncnc1)N(C(=O)[C@H](F)Cl)c1ccc(S(F)(F)(F)(F)F)cc1", "target": "rep main protease", "observed": "enzyme activity", "action": "inhibitor", "method": "biochemical", "organism": "SARS-CoV-1", "IC50 [µM]": 0.094}
{"Structure (SMILES)": "C=CC(=O)N1CCN(c2cc(-c3ccc(C4CCC4)cc3)ncc2C(=O)N[C@H](Cc2ccccc2)C(=O)NC)C(C)C1 (some centres unmarked)", "target": "rep main protease", "observed": "enzyme activity", "action": "inhibitor", "IC50 [µM]": "> 100"}
{"Structure (SMILES)": "CCC(C(=O)Nn1cccc1)n1cc(F)cc2nc(SCc3ccc(F)cc3)nc1-2 (centres unmarked)", "target": "rep papain-like protease", "observed": "enzyme activity", "IC50 [µM]": "9.72 ± 0.46"}
{"Structure (SMILES)": "C=CCC(NC(=O)C1CN(C(=O)C(CC(=C)C)NC(=O)C=C)CC1c1cccc(C(F)(F)F)c1)C(=O)NC (centres unmarked)", "target": "rep main protease", "observed": "enzyme activity", "action": "inhibitor", "IC50 [µM]": "> 100"}
{"Structure (SMILES)": "CCOC(=O)/C=C/C(C[C@@H]1CCNC1=O)NC(=O)[C@@H](CC(=O)C(NC(=O)OCc1ccccc1)C(C)C)Cc1ccccc1 (some centres unmarked)", "target": "rep main protease", "observed": "enzyme activity", "action": "inhibitor", "IC50 [µM]": "> 100"}
{"Structure (SMILES)": "CCC(C(=O)Nc1cccc(F)c1)n1cccc2nc(SCc3ccc(F)cc3)nc1-2 (centres unmarked)", "target": "rep papain-like protease", "observed": "enzyme activity", "IC50 [µM]": "> 20"}
{"Structure (SMILES)": "CCOC(=O)C=CC(Cc1ccccc1)NC(=O)C(Cc1ccccc1)NC(=O)C(NC(=O)C=Cc1ccc2c(c1)OCO2)C(C)C (centres unmarked)", "target": "rep main protease", "observed": "enzyme activity", "action": "inhibitor", "IC50 [µM]": "> 10"}
{"Structure (SMILES)": "Cc1ccc(CNC(=O)c2ccc(F)c(F)c2)cc1C(=O)N[C@H](C)c1cccc2ccccc12", "target": "rep papain-like protease", "observed": "enzyme activity", "action": "inhibitor", "IC50 [µM]": "0.31 ± 0.03"}
{"Structure (SMILES)": "Oc1cc(O)cc(Oc2c(O)cc(O)cc2Oc2c(O)cc(O)cc2O)c1", "target": "rep main protease", "observed": "enzyme activity", "action": "inhibitor", "IC50 [µM]": 165}
{"Structure (SMILES)": "CCC(C(=O)Nc1ccccc1C)n1c(SCc2ccc(F)cc2)nc2cccnc21 (centres unmarked)", "target": "rep papain-like protease", "observed": "enzyme activity", "IC50 [µM]": "> 20"}
{"Structure (SMILES)": "CCOC(=O)/C=C/C(C[C@@H]1CCNC1=O)NC(=O)[C@H](Cc1ccccc1)NC(=O)C(NC(=O)c1cc(C)on1)C(C)C (some centres unmarked)", "target": "rep main protease", "observed": "enzyme activity", "action": "inhibitor", "IC50 [µM]": 80}
{"Structure (SMILES)": "CCC(C(=O)Nn1cccc1)n1c(SCc2ccc(F)cc2)nc2ncccc21 (centres unmarked)", "target": "rep papain-like protease", "observed": "enzyme activity", "IC50 [µM]": "9.52 ± 0.06"}
{"Structure (SMILES)": "CCOC(=O)/C=C/C(C[C@@H]1CCNC1=O)NC(=O)[C@H](Cc1ccc(F)cc1)NC(=O)C(NC(=O)OCc1ccccc1)C(C)C (some centres unmarked)", "target": "rep main protease", "observed": "enzyme activity", "action": "inhibitor", "IC50 [µM]": "> 100"}
{"Structure (SMILES)": "CCC(C(=O)Nn1cccc1)n1cccc2nc(SCc3ccc(F)cc3)nc1-2 (centres unmarked)", "target": "rep papain-like protease", "observed": "enzyme activity", "IC50 [µM]": "2.46 ± 0.65"}
{"Structure (SMILES)": "C=CC(=O)NC(CC(=C)C)C(=O)N1CC(C(=O)NC(Cc2ccco2)C(=O)NC)C(c2cccc(C(F)(F)F)c2)C1 (centres unmarked)", "target": "rep main protease", "observed": "enzyme activity", "action": "inhibitor", "IC50 [µM]": 47.8}
{"Structure (SMILES)": "CCC(C(=O)Nc1ccc(C)cc1)n1c(SCc2ccc(F)cc2)nc2ncccc21 (centres unmarked)", "target": "rep papain-like protease", "observed": "enzyme activity", "IC50 [µM]": "> 20"}
{"Structure (SMILES)": "CCOC(=O)/C=C/C(C[C@@H]1CCNC1=O)NC(=O)[C@H](Cc1ccc(F)cc1)NC(=O)C(NC(=O)c1cc(C)on1)C(C)C (some centres unmarked)", "target": "rep main protease", "observed": "enzyme activity", "action": "inhibitor", "IC50 [µM]": "> 100"}
{"Structure (SMILES)": "COC(=O)[C@H](C[C@@H]1CCNC1=O)NC(=O)[C@H](Cc1ccccc1)NC(=O)/C=C/c1ccc2c(c1)OCO2", "target": "rep main protease", "observed": "enzyme activity", "action": "inhibitor", "IC50 [µM]": "> 25"}
{"note": "Repeated from above:"}
{"Structure (SMILES)": "O=C[C@H](C[C@@H]1CCNC1=O)NC(=O)[C@H](Cc1ccccc1)NC(=O)/C=C/c1ccc2c(c1)OCO2", "target": "rep main protease", "observed": "enzyme activity", "action": "inhibitor", "IC50 [µM]": "> 25"}
{"Structure (SMILES)": "CCC(C(=O)Nc1ccccc1C)n1c(SCc2ccc(F)cc2)nc2cccnc21 (centres unmarked)", "target": "rep papain-like protease", "observed": "enzyme activity", "IC50 [µM]": "> 20"}
{"Structure (SMILES)": "CCC[C@H](NC(=O)[C@H](CC(C)C)NC(=O)OCc1ccccc1)C(=O)C(=O)NCc1ccccn1", "target": "rep main protease", "observed": "enzyme activity", "action": "inhibitor", "IC50 [µM]": 0.6}
{"Structure (SMILES)": "C=CCC(NC(=O)C1CN(C(=O)C(CC(=C)C)NC(=O)C=C)CC1c1cccc(C(F)(F)F)c1)C(=O)NC (centres unmarked)", "target": "rep main protease", "observed": "enzyme activity", "action": "inhibitor", "IC50 [µM]": "> 100"}
